# Measurements from different studies.
# Protocols differ between the studies behind these lines.
Compound,target or system,test,test system,conditions,scale,quantity,result
OC(Cn1cncn1)(Cn1cncn1)c1ccc(F)cc1F,Candidozyma auris,inhibitor,280,24 h,,MIC,128 µg/mL
N=C(N)c1ccc(OCc2cc(Br)cc(COc3ccc(C(=N)N)cc3)c2)cc1,Escherichia coli,,mcr-1 polymyxin-resistant,"20 h, compound alone",,MIC,100 µg/mL
c1ccc2[nH]c(CNCC34CC5CC(CC(C5)C3)C4)nc2c1,Enterobacter aerogenes,,ATCC 35029,,,MIC,> 128 µg/mL
Cc1c(CN(C)C(=O)/C=C/c2cnc3c(c2)CCC(=O)N3)oc2ccccc12,Escherichia coli,broth microdilution,MG1655,4% human serum albumin,,MIC,> 32 µg/mL
CC[C@H]1OC(=O)[C@H](C)[C@@H](O[C@H]2C[C@@](C)(OC)[C@@H](O)[C@H](C)O2)[C@H](C)[C@@H](O[C@@H]2O[C@H](C)C[C@H](N(C)C)[C@H]2O)[C@](C)(O)C[C@@H](C)CN(C)[C@H](C)[C@@H](O)[C@]1(C)O,Neisseria gonorrhoeae,broth microdilution,WHO M,1.5 h,,MIC,1 µg/mL
O=C(NCc1ccccc1)C(c1cccs1)N(CCN1CCOCC1)C(=O)c1ccccc1 (stereo not shown),Micrococcus luteus,,DSM 1790,,,MIC,> 128 µM
NC[C@H]1O[C@H](O[C@H]2[C@H](O)[C@@H](O[C@H]3O[C@H](CO)[C@@H](O)[C@H](N)[C@H]3O)[C@H](N)C[C@@H]2N)[C@H](O)[C@@H](O)[C@@H]1O,Micrococcus luteus,broth microdilution,ATCC 4698,"43 h, 37 °C, cation-adjusted Mueller-Hinton broth",,MIC,2 µg/mL
CC1NC(=O)C(C(=O)NC(C(=O)NC2C(=O)N3C2SC(C)(C)C3C(=O)O)c2ccccc2)=C1O (stereo not shown),Escherichia coli,broth microdilution,BW25113 wild type,18 h,,MIC,100 µg/mL
CN[C@H](CC(C)C)C(=O)N[C@H]1C(=O)N[C@@H](CC(N)=O)C(=O)N[C@H]2C(=O)N[C@H]3C(=O)N[C@H](C(=O)N[C@H](C(=O)O)c4cc(O)cc(O)c4-c4cc3ccc4O)[C@H](O)c3ccc(c(Cl)c3)Oc3cc2cc(c3O[C@@H]2O[C@H](CO)[C@@H](O)[C@H](O)[C@H]2O[C@H]2C[C@](C)(N)[C@H](O)[C@H](C)O2)Oc2ccc(cc2Cl)[C@H]1O,Micrococcus luteus,,ATCC 4698,43 h,,MIC,0.5 µg/mL
CC[C@H]1OC(=O)[C@H](C)[C@@H](O[C@H]2C[C@@](C)(OC)[C@@H](O)[C@H](C)O2)[C@H](C)[C@@H](O[C@@H]2O[C@H](C)C[C@H](N(C)C)[C@H]2O)[C@](C)(O)C[C@@H](C)C(=O)[C@H](C)[C@@H](O)[C@]1(C)O,Streptococcus pyogenes,broth microdilution,8007,,,MIC,> 64 µg/mL
CCCCCOc1ccc(-c2ccc(-c3ccc(C(=O)N[C@H]4C[C@@H](O)[C@@H](OCC[N+](C)(C)C)NC(=O)[C@@H]5[C@@H](O)[C@@H](C)CN5C(=O)[C@H]([C@@H](C)O)NC(=O)[C@H]([C@H](O)[C@@H](O)c5ccc(O)cc5)NC(=O)[C@@H]5C[C@@H](O)CN5C(=O)[C@H]([C@@H](C)O)NC4=O)cc3)cc2)cc1,Candida glabrata,CLSI broth microdilution,10956,,,MIC,0.5 µg/mL
Cn1cc(-c2ccc(-c3cncc(Cl)c3N3CCC4(CCNC4=O)CC3)cc2)cn1,COLO 205,"microarray, refers to: ATF-3",,"concentration not given, 4 h",baseline: untreated cells,fold change in expression,2.11
O=[N+]([O-])c1ccc2[nH]c(CNCC34CC5CC(CC(C5)C3)C4)nc2c1,Enterobacter aerogenes,,ATCC 35029,,,MIC,> 128 µg/mL
CC(C)C1NC(=O)C(C(=O)NC(C(=O)NC2C(=O)N3C2SC(C)(C)C3C(=O)O)c2ccccc2)=C1O (stereo not shown),Escherichia coli,broth microdilution,ATCC 25922 wild type,no clavulanic acid,,MIC,12.5 µg/mL
c1ccc(OCCn2c(CNC34CC5CC(CC(C5)C3)C4)nc3ccccc32)cc1,Enterobacter aerogenes,,ATCC 35029,,,MIC,> 128 µg/mL
CC1(C)S[C@@H]2[C@H](NC(=O)Cc3ccccc3)C(=O)N2[C@H]1C(=O)O,Neisseria gonorrhoeae,broth microdilution,WHO G,1.5 h,,MIC,16 µg/mL
CC1(C)S[C@@H]2[C@H](NC(=O)[C@H](N)c3ccccc3)C(=O)N2[C@H]1C(=O)O,Escherichia coli,broth microdilution,ATCC 25922 wild type,added: clavulanic acid 6 µg/mL,,MIC,1.56 µg/mL
CC[C@H](C)[C@H](NC(=O)[C@H](CCCCN)NC(=O)[C@H](CCC(=O)O)NC(=O)[C@H](CCCCN)NC(=O)[C@H](CO)NC(=O)[C@H](CCCCN)NC(=O)[C@H](CCCNC(=N)N)NC(=O)[C@H](Cc1ccccc1)NC(=O)[C@H](Cc1ccccc1)NC(=O)[C@H](CC(=O)O)NC(=O)CNC(=O)[C@H](CC(C)C)NC(=O)[C@@H](N)CC(C)C)C(=O)NCC(=O)N[C@@H](CCCCN)C(=O)N[C@@H](CCC(=O)O)C(=O)N[C@@H](Cc1ccccc1)C(=O)N[C@@H](CCCCN)C(=O)N[C@@H](CCCNC(=N)N)C(=O)N[C@H](C(=O)N[C@H](C(=O)N[C@@H](CCC(N)=O)C(=O)N[C@@H](CCCNC(=N)N)C(=O)N[C@H](C(=O)N[C@@H](CCCCN)C(=O)N[C@@H](CC(=O)O)C(=O)N[C@@H](Cc1ccccc1)C(=O)N[C@@H](CC(C)C)C(=O)N[C@@H](CCCNC(=N)N)C(=O)N[C@@H](CC(N)=O)C(=O)N[C@@H](CC(C)C)C(=O)N[C@H](C(=O)N1CCC[C@H]1C(=O)N[C@@H](CCCNC(=N)N)C(=O)N[C@H](C(=O)N[C@@H](CCC(=O)O)C(=O)N[C@@H](CO)C(=O)O)[C@@H](C)O)C(C)C)[C@@H](C)CC)C(C)C)[C@@H](C)CC,Micrococcus luteus,broth microdilution,ATCC 4698,,,MIC,0.89 µM
CC1(C)S[C@@H]2[C@H](NC(=O)[C@H](N)c3ccccc3)C(=O)N2[C@H]1C(=O)O,Pseudomonas aeruginosa,,clinical isolate RKI-No_597/16,,,MIC,> 16 µg/mL
FC(F)(F)Oc1ccc(OCCn2c(CNCC34CC5CC(CC(C5)C3)C4)nc3ccccc32)cc1,Enterobacter aerogenes,,ATCC 35029,,,MIC,> 128 µg/mL
CO/N=C(\C(=O)N[C@@H]1C(=O)N2C(C(=O)O)=C(CSc3nc(=O)c(O)nn3C)CS[C@H]12)c1csc(N)n1,Neisseria gonorrhoeae,broth microdilution,WHO N,1.5 h,,MIC,1 µg/mL
CN(C)[C@@H]1C(O)=C(C(N)=O)C(=O)[C@@]2(O)C(O)=C3C(=O)c4c(O)cccc4[C@@](C)(O)[C@H]3C[C@@H]12,Acidovorax avenae,,ATCC 19307,,,MIC,16 µg/mL
C[C@H]1[C@H](NC(=O)/C(=N\OC(C)(C)C(=O)O)c2csc(N)n2)C(=O)N1S(=O)(=O)O,Enterobacter aerogenes,agar dilution,ATCC 13048 susceptible,,,MIC,0.125 µg/mL
N=C(N)c1ccc(OCCCCCOc2ccc(C(=N)N)cc2)cc1,Escherichia coli,,mcr-2 polymyxin-resistant,"20 h, compound alone",,MIC,200 µg/mL
CC(C)CC1NC(=O)C(C(=O)NC(C(=O)NC2C(=O)N3C2SC(C)(C)C3C(=O)O)c2ccccc2)=C1O (stereo not shown),Escherichia coli,broth microdilution,BW25113 wild type,18 h,,MIC,50 µg/mL
CC[C@H](C)[C@H](NC(=O)[C@H](CCCCN)NC(=O)[C@H](CCC(=O)O)NC(=O)CNC(=O)CNC(=O)[C@H](CCCCN)NC(=O)[C@H](CCCNC(=N)N)NC(=O)[C@H](CC(C)C)NC(=O)[C@H](CC(C)C)NC(=O)CN)C(=O)NCC(=O)N[C@@H](CCC(=O)O)C(=O)N[C@@H](CCCCN)C(=O)N[C@@H](CC(C)C)C(=O)N[C@@H](CCCCN)C(=O)N[C@@H](CCCCN)C(=O)N[C@H](C(=O)NCC(=O)N[C@@H](CCC(N)=O)C(=O)N[C@@H](CCCCN)C(=O)N[C@H](C(=O)N[C@@H](CCCCN)C(=O)N[C@@H](CC(N)=O)C(=O)N[C@@H](Cc1ccccc1)C(=O)N[C@@H](Cc1ccccc1)C(=O)N[C@@H](CCC(N)=O)C(=O)N[C@@H](CCCCN)C(=O)N[C@@H](CC(C)C)C(=O)N[C@H](C(=O)N1CCC[C@H]1C(=O)N[C@@H](CCC(N)=O)C(=O)N1CCC[C@H]1C(=O)N[C@@H](CCC(=O)O)C(=O)N[C@@H](CCC(N)=O)C(=O)O)C(C)C)[C@@H](C)CC)[C@@H](C)CC,Micrococcus luteus,broth microdilution,ATCC 4698,,,MIC,2.06 µM
CC(C)(C)Oc1ccc(CC2NC(=O)C(C(=O)NC(C(=O)NC3C(=O)N4C3SC(C)(C)C4C(=O)O)c3ccccc3)=C2O)cc1 (stereo not shown),Escherichia coli,broth microdilution,ATCC 25922 wild type,added: clavulanic acid 6 µg/mL,,MIC,25 µg/mL
N=C(N)c1ccc(OCCC(CCOc2ccc(C(=N)N)cc2)c2ccccc2)cc1 (stereo not shown),Escherichia coli,,552100,"in combination, checkerboard, added: rifampicin",,MIC,12.5 µg/mL
